Measured values pooled from the literature.
Every numbered part comes from another study and shows a few of its results, in no order. Positions count from the first letter of the parent shown.

Block 1
Target: RNA binding protein fox-1 homolog 2, RRM domain, GST-SBP tag (RBFOX2, Homo sapiens, UniProt O43251-10, residues 100-194)
Method: RNA Bind-n-Seq
Form: RNA
Medium: in vitro
Concentration: 365 nM
Notes: natural RNA segment, single round, ends assumed
Relative to: no-protein control
Reading: higher = stronger binding
Constant ends, left off below: GGGAGUUCUACAGUCCGACGAUC … UGGAAUUCUCGGGUGCCAA
Target sequence (chain): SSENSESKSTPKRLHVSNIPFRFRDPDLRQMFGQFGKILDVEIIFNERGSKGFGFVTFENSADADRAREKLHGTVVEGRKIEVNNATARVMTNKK
| Strand | RBNS enrichment (R) |
| --- | --- |
| GAAUCUGCAACCUGAUUGAUUAUAUAAAAAUACAUGCAAAUAACAAGAUUUUCUUACCUCUCAGUUGUUGAAACACUUUGCUUCUUAAAAUUGAUAUGUUGAAACUUUAA | 0.417 |
| UUGAGCGCUGAAUCGUGUCCCAUGAGAUCAGGCGCCAUCUGUAAAGUCUCCUCUGGAAAUGCCAAUCCAUCCUUCCCCCAGCUGCUUCCUCGGGGAGGCCCCUGCCCCCA | 0.901 |
| CGAGAGACGCAUCAUCGAGACCCCCCCACACCGCUACUAGGCCUACACCUCUCCCCACGCAGAGGGGGAAUUCUGCCCUGGUGAAACAGACACUCCAGACAUGGGAGAAG | 0.349 |
| GUAGAAUUCUGUGCUCCCCGUGACACUUAGUACAUUAAGAAUGACUACACUGUUCCUCGUAUGUGAAGGAGGCAGUGCUGACUCCGUGAGUGUGAGACACGUGCUUUGAA | 1.29 |
| AAACUACUAAACAUAAAUAGAUUUUCACUACCACAAAGAAUGAGAAUUAAUGACACUGAAGGAAUGAUGCAAAAACUUCCCAUGAUUCAUCACUGAAAAUAUGACUAAUA | 0.527 |
| UUUUAAAUUGUACGAAGGGGAAUUUAAAAAUACGUAACUGCUGUUUAUACAUCAGCUCCUUACUGCUUAUUAAUCUGUAUUGUACCCACGAUAUCAGGAGUGAAGCAGAC | 0.382 |
| GGCUAACUUUCACAAAACUGUCUUGCCUCUUUUAAACAUUACACUUGAUACGAGAAAUAUGGCUUAAGAACACAUGAUGUCUCAGAAGGCCCAUGCGCACACCAGACCGC | 0.448 |
| GUGUAGUUUUCUGUUUUAAAUCCCCCACCCCUGGCUGGGCUCAGUGGCUCACCCCUGUAAUCCCAGCACUUUGGGAGGCCAAGGCGGGUCGAUUACUUGAGGUCAGGAGU | 0.466 |

Block 2
Target: CCNE2, cyclin fold, Cln2 fusion (human)
Method: yeast growth competition, sequencing
Medium: yeast
Notes: weak parent motif
Relative to: not given
Reading: higher = stronger binding
Starting sequence: RB1 docking peptide (human); PKPLKKLRFDIEG
| Change | normalised enrichment score |
| --- | --- |
| PKPLKKGRFDIEG [L7G] | 0.805 |
| GKPLKKLRFDIEG [P1G] | 0.565 |
| PKPLKKLIFDIEG [R8I] | 0.416 |
| PFPLKKLRFDIEG [K2F] | 0.564 |
| PKNLKKLRFDIEG [P3N] | 0.822 |
| PKPLWKLRFDIEG [K5W] | 0.678 |
| QKPLKKLRFDIEG [P1Q] | 0.75 |
| PKPLKKLTFDIEG [R8T] | 0.979 |

Block 3
Target: Histone acetyltransferase KAT6A, winged helix 1, GST fusion (KAT6A, Homo sapiens, UniProt Q92794, residues 1-85)
Method: protein binding microarray
Form: double-stranded DNA, one strand shown
Medium: in vitro
Concentration: not given
Notes: 8-mer, flanks averaged, mean of 2 arrays, mostly near background
Relative to: not given
Reading: higher = stronger binding
Construct (chain): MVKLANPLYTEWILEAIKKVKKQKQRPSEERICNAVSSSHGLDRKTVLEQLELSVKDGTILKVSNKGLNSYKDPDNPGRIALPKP
| Strand | E-score |
| --- | --- |
| AGGCTGGC | -0.109 |
| ACGCACCT | -0.0265 |
| GACCCGCC | 0.386 |
| AGGGACCT | -0.0622 |
| CGCGTATA | 0.322 |
| CAGGCATA | -0.0963 |
| CTCGTTCC | -0.0793 |
| CGTCGTAA | 0.158 |

Mixed results
| Substance | target | test | test system | conditions | scale | endpoint | result |
| --- | --- | --- | --- | --- | --- | --- | --- |
| PhoQ, residues 284 288 289 292 302 303 SSCCRF | PhoP, residues 12 14 15 18 19 SMASL (Escherichia coli, UniProt P23836) | Sort-seq, refers to: YFP reporter | E. coli | PhoQ-PhoP variant library, with: 10 µM Mg2+ | relative to: high Mg2+ state, higher = stronger signaling | fold induction | 10 |

For quick reference, copied from above (block 1):
| Strand | RBNS enrichment (R) |
| --- | --- |
| CGAGAGACGCAUCAUCGAGACCCCCCCACACCGCUACUAGGCCUACACCUCUCCCCACGCAGAGGGGGAAUUCUGCCCUGGUGAAACAGACACUCCAGACAUGGGAGAAG | 0.349 |
| GAAUCUGCAACCUGAUUGAUUAUAUAAAAAUACAUGCAAAUAACAAGAUUUUCUUACCUCUCAGUUGUUGAAACACUUUGCUUCUUAAAAUUGAUAUGUUGAAACUUUAA | 0.417 |
